Measurements from different studies.
Each numbered part is a random draw from the data of one study; scales do not carry over between parts. Substitutions count along the parent as printed.

Set 1
Target: ABI1, truncated, D143A, DHFR fusion (Arabidopsis thaliana)
Technique: DHFR PCA, deep sequencing
Sample: yeast
Setting: methotrexate growth selection, single substitutions
Added: (+)-ABA 0 µM
Reference: wild-type fitted maximum
Reading: higher = stronger binding
Starting sequence: PYL1, truncated, DHFR fusion (Arabidopsis thaliana); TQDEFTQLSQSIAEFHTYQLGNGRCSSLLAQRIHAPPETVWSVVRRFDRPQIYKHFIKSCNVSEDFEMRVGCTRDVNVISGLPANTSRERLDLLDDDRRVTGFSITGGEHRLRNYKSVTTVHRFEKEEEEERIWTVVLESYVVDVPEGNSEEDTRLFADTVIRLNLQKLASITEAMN
`Q19D`: “relative binding score” 43.7%.
Under “relative binding score”, `E127H` is recorded as 39%.
`S117D` — result for “relative binding score”: 2.04%.
`N77G` — result for “relative binding score”: 14.9%.
For `D92L`, “relative binding score” read -1.2%.
`R74L`: “relative binding score” 1.27%.
`L138I` — result for “relative binding score”: -0.862%.
For `K116Y`, “relative binding score” read -3.98%.
For `N114L`, “relative binding score” read 0.87%.
Under “relative binding score”, `E125D` is recorded as 9.8%.
`A13Y` — result for “relative binding score”: 6.44%.
`L82K`: “relative binding score” 2.2%.
`Q51C` — result for “relative binding score”: -2.06%.
`V62A`: “relative binding score” 2.73%.
Under “relative binding score”, `L20H` is recorded as 40.2%.
Under “relative binding score”, `T120W` is recorded as -5.47%.

Set 2
Target: RNA binding protein fox-1 homolog 2, RRM domain, GST-SBP tag (RBFOX2, Homo sapiens, UniProt O43251-10, residues 100-194)
Technique: RNA Bind-n-Seq
Molecule type: RNA
Sample: in vitro
Tested at: 365 nM
Setting: natural RNA segment, single round, ends assumed
Reference: no-protein control
Reading: higher = stronger binding
Shared flanks, not repeated: GGGAGUUCUACAGUCCGACGAUC … UGGAAUUCUCGGGUGCCAA
Construct (chain): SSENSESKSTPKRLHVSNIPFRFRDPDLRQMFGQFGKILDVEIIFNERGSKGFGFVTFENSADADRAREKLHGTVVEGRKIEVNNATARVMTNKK
For `UAAAGCUGUUCCCUGGGGGAUGGCUUGGUAGUGGACUUUCUGGGGUUUGCCUGUUACGCCAGACUCGGACUUCUAAGCUUUAAGUGUGGCCCAGGAGGUUUCUUCUCCCU`, “RBNS enrichment (R)” read 4.09.
`AUGGCUGAUCUCUCCUCAAAGAGGUGAGUAGAAAAGAGAUUCUUGUUUAAAAGAGUCUAGCAAGAAGCAGUAGCUUGUCUGCUAAGAGUACAAAAAUUAUAUGACAAAUU`: “RBNS enrichment (R)” 0.825.
Under “RBNS enrichment (R)”, `AUUAUUUUAAUACAGGAAAAGAAAAGAUUUAGUAAUUUCUUACCAUGCUAAUAUGUAAAGUUCAUGCCAUCCAGGCAUUUAAGAGCGAUCCUCAUCCCUUCAGCAAUAUG` is recorded as 0.383.
For `ACUUGCAAAGUCUGUGCCGCCUAUUCUGACUCAUGCUGUCUAGGUGCCCAGUGUAUGAGAGCCACUUAAAACAACGCAGCCAAUUUGUAAGCAGUCUUCAUUCUCCCUCU`, “RBNS enrichment (R)” read 0.391.
For `UUAAACAAGGUGAGGGAGAGUAGCUGCCUCCGUGUCACCUUGUCUGCCUGGGUCUCUGAGGAAGGAGGGGUCCUGCUUUCUCACCCAGCUCACCCCUUUGGUGACUCAGA`, “RBNS enrichment (R)” read 0.375.
`ACUUUAUAACCCUUACUGGACAACACACAGAUCCUUGAGCUCACGCUGCAGGAUAGUACAGUUUUACCGCAGAGGGAAUCUGGAACAGUGGAAUCAUGUGUCUGCCCUGU`: “RBNS enrichment (R)” 0.299.
Under “RBNS enrichment (R)”, `GGGCUCUCUGCUGUACAUAUUUGAGACUAGUUUUUAUUCCUUGUGAAGAUGAUAUACUAUUUUUGUUAAGCGUGUCUGUAUUUAUGUGUGAGGAGCUGCUGGCUUGCAGU` is recorded as 0.407.
For `AAAAAAAGCAGCCUUUUAGGGCUAGAGUAUUUUAUAUAAACAGAAGAGCUAAGUUCCUGAAGACUAAGCUAGAUAGCUGCAGCUAUAUGUAAAUUGUAUAUUUUUAUGAA`, “RBNS enrichment (R)” read 0.812.

Set 3
Target: Interferon regulatory factor 7, full length, phosphomimetic (IRF7, Homo sapiens, UniProt Q92985, residues 1-503, S101K/S471D/S472D/S475D/S476D/S477D/S483D/S484D/S487D)
UniProt Q92985, sequence (whole entry, unmodified, looked up): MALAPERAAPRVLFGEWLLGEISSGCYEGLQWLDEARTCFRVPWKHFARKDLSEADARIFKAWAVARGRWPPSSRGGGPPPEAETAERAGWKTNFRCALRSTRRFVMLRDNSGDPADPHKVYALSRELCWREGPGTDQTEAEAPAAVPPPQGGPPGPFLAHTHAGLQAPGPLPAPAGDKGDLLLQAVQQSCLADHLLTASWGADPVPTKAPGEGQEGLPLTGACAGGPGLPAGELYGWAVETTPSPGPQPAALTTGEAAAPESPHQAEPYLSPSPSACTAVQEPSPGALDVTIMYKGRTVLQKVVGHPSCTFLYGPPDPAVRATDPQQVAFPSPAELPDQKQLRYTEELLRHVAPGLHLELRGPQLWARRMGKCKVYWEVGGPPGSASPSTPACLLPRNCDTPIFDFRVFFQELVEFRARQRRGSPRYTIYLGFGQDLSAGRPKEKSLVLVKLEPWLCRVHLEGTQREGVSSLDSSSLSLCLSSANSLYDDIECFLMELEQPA
Technique: protein-binding microarray
Molecule type: double-stranded DNA, one strand shown
Sample: in vitro
Tested at: 250 nM
Setting: 60-bp whole probe
Added: salmon DNA 0.4 mg/ml
Reference: random background probes
Reading: higher = stronger binding
Shared flanks, not repeated: GCCTAGCAC … GTCTTGATTCGCTTGACGCTGCTG
`AGATTTTTTTTCCTAATTGAGTGCTAG` has a log fluorescence of 1.09 z-score.
`GACGGACTGGACACGGGGGACGTGCTA` has a log fluorescence of 0.138 z-score.
`GACCAACTGAGTATCGAGACGTGCTAG` gave a log fluorescence of 0.319 z-score.
`TCAAAAATAGAAACTCGTACTGTGCTA` has a log fluorescence of 0.865 z-score.
With `GACAGTTTCGGACTGGGGACGTGCTAG` the log fluorescence was 3.54 z-score.
`AAGGAAATCGGTGATCAGTCTGTGCTA` has a log fluorescence of -0.506 z-score.
`TTAGGTTGCGACTATCGGTTAGTGCTA` has a log fluorescence of -0.212 z-score.
`GACGAACTGGGACTGGGGACGTGCTAG` has a log fluorescence of -0.265 z-score.
`AGGAAGACATCAAAGAGAGCGTGCTAG` has a log fluorescence of -0.45 z-score.
For `TTAGGTATCCTACTGCTCTAGTGCTAG`, the log fluorescence was -0.158 z-score.
The log fluorescence of `TTAGATTTCAGTTTAGATTAGTGCTAG` is reported as 1.49 z-score.
With `CAGGTTTCTGATGGGCCTAGGTGCTAG` the log fluorescence was 3.09 z-score.
The log fluorescence of `GACGGCCTCCTTCTCCTGACGTGCTAG` is reported as -0.378 z-score.
`TCATCCATGTGTTTAAAACTGTGCTAG` has a log fluorescence of 0.16 z-score.
`GACGATATCGCGTATCGAGACGTGCTA` has a log fluorescence of 0.317 z-score.
`TCACGTCTGAGCTCCGTACTGTGCTAG` gave a log fluorescence of -0.142 z-score.
`TTATATTTCAGTTTCGATTAGTGCTAG` has a log fluorescence of 9.76 z-score.
With `GACGAACTCGGGACTGGAGACGTGCTA` the log fluorescence was -0.289 z-score.
For `TTAGCTCTCGGTCTCGGTTAGTGCTAG`, the log fluorescence was 1.25 z-score.

Set 4
Target: CCNB2, cyclin fold, Cln2 fusion (human)
Technique: yeast growth competition, sequencing
Sample: yeast
Setting: weak parent motif
Reference: not given
Reading: higher = stronger binding
Starting sequence: ITGB3BP docking peptide (human); MPVKRSLKLDGLL
`L7A` — result for “normalised enrichment score”: 0.944.
For `L12A`, “normalised enrichment score” read 0.369.
Under “normalised enrichment score”, `M1A` is recorded as 0.107.
`S6A`: “normalised enrichment score” 0.37.
Under “normalised enrichment score”, `V3A` is recorded as 0.548.
`D10A`: “normalised enrichment score” 0.0197.
`L9F`: “normalised enrichment score” 0.305.

Excerpt of the above (set 3):
`GACGAACTGGGACTGGGGACGTGCTAG` has a log fluorescence of -0.265 z-score.
The log fluorescence of `TTAGATTTCAGTTTAGATTAGTGCTAG` is reported as 1.49 z-score.
`TCAAAAATAGAAACTCGTACTGTGCTA` has a log fluorescence of 0.865 z-score.
`GACGATATCGCGTATCGAGACGTGCTA` has a log fluorescence of 0.317 z-score.
With `GACGAACTCGGGACTGGAGACGTGCTA` the log fluorescence was -0.289 z-score.
`TTAGGTTGCGACTATCGGTTAGTGCTA` has a log fluorescence of -0.212 z-score.
`TCATCCATGTGTTTAAAACTGTGCTAG` has a log fluorescence of 0.16 z-score.
With `GACAGTTTCGGACTGGGGACGTGCTAG` the log fluorescence was 3.54 z-score.
